Published values pooled from the literature.
Each line is one published result; not all experiments were run side by side. Numbers after ± are the reported error. ≈ marks a conversion by molar mass, not a printed value.

Chains of the proteins cited; added tags and fusions are not shown.
UniProt Q9H1R3, whole entry: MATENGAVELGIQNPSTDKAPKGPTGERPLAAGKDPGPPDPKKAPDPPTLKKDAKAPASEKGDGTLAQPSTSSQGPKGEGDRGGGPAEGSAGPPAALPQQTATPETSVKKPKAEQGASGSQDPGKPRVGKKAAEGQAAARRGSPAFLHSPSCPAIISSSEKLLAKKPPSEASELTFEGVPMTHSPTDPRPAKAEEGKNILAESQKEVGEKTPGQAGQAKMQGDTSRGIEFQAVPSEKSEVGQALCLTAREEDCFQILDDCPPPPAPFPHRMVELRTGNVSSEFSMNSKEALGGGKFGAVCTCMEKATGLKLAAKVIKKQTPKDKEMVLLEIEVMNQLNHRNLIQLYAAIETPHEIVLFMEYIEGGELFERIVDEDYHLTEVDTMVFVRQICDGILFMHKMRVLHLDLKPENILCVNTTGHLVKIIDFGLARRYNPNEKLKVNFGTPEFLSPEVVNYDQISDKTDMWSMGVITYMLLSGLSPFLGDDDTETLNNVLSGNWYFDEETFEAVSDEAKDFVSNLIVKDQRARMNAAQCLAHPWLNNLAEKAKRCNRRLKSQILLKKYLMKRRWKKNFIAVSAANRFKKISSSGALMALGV
UniProt P35916, whole entry, looked up: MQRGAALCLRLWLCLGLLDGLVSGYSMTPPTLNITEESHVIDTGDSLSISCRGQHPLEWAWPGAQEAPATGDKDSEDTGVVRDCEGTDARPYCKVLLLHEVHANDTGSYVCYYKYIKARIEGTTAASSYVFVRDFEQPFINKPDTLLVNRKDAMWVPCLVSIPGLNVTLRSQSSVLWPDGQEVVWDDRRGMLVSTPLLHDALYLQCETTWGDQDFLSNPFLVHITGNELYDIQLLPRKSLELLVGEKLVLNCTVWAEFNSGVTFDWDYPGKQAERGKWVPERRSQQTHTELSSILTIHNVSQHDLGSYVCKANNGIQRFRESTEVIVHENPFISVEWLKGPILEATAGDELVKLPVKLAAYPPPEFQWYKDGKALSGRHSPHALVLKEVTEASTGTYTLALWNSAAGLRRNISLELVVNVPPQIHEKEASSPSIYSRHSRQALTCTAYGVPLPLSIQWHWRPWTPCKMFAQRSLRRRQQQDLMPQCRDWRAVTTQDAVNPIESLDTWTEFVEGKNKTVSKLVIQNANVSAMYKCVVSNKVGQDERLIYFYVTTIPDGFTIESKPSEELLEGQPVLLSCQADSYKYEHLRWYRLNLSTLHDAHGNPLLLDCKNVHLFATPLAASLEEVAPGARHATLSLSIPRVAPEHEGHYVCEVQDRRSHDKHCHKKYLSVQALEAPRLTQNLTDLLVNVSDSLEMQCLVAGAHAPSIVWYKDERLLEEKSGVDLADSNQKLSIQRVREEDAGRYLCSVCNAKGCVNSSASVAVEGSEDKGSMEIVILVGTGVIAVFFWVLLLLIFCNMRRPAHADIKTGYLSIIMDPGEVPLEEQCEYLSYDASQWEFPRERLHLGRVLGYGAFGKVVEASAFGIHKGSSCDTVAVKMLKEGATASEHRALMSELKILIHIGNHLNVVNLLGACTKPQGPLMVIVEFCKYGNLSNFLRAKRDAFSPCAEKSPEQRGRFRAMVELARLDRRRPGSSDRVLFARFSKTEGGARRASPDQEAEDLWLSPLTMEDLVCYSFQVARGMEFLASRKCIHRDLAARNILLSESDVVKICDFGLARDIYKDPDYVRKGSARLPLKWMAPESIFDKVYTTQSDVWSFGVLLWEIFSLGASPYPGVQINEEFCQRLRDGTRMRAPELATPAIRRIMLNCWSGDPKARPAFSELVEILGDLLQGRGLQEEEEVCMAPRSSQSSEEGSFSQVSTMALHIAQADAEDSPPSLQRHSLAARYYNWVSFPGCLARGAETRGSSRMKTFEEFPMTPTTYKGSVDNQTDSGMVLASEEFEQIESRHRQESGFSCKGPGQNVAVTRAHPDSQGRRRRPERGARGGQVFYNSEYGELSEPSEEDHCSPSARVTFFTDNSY

Substance	target or system	test	system	setting	scale	endpoint	value
CC(C)C[C@H](NC(=O)[C@@H]1C[C@@H](O)CN1C(=O)[C@H](Cc1ccccc1)NC(=O)[C@H](CO)NC(=O)[C@H](C)NC(=O)[C@H](Cc1ccccc1)NC(=O)[C@@H](NC(=O)[C@H](CCC(=O)O)NC(=O)[C@H](Cc1c[nH]cn1)NC(=O)[C@@H](NC(=O)[C@@H](NC(=O)[C@H](CCC(N)=O)NC(=O)[C@H](C)NC(=O)[C@@H](N)CC(=O)O)[C@@H](C)O)C(C)C)C(C)C)C(=O)N[C@@H](CC(=O)O)C(=O)N[C@@H](CO)C(=O)N[C@@H](CC(=O)O)C(=O)NCC(=O)N[C@H]1CSSC[C@@H](C(=O)N[C@@H](Cc2c[nH]c3ccccc23)C(=O)N[C@@H](CC(N)=O)C(=O)N2CCC[C@H]2C(=O)N[C@@H](C)C(=O)N[C@H]2CSSC[C@@H](C(N)=O)NC(=O)[C@H](Cc3ccc(O)cc3)NC(=O)[C@H](Cc3c[nH]cn3)NC(=O)[C@H](CCCCN)NC(=O)CNC2=O)NC1=O	–	RP-HPLC	mouse serum 25%	50 µM, 6 h, 37 °C	–	degradation to non-isomer products	22 ± 0.62%
Cc1cc(N(CCOS(C)(=O)=O)CCOS(C)(=O)=O)ccc1C(=O)O	–	–	mouse	iv, 20 mg/kg	–	apparent volume of distribution	6 L/kg
N-methyl-N′-nitro-N-nitrosoguanidine	–	–	Phenion FT skin model	–	–	comet assay result	positive
CC[C@H](C)[C@@H]([C@@H](CC(=O)N1CCC[C@H]1[C@H](OC)[C@@H](C)C(=O)NCCc1ccc(OP(=O)(O)O)cc1)OC)N(C)C(=O)[C@@H](NC(=O)[C@H](C(C)C)N(C)C)C(C)C.NC(CO)(CO)CO	–	–	distilled water	23 °C	–	solubility	> 51000 µg/mL
CCN1CCN(Cc2ccc(NC(=O)c3ccc(C)c(/C=C/c4cnc5[nH]ccc5c4OC)c3)cc2C(F)(F)F)CC1	MYLK2 (Homo sapiens, UniProt Q9H1R3)	inhibitor	–	5 µM	relative to: no inhibitor	log2 fold change	-1.21
CC#C/C(=N\OC[C@H]1COCCN1)c1ccc2ncnc(Nc3ccc(OCc4cccc(F)c4)c(Cl)c3)c2c1	FLT4 (Homo sapiens, UniProt P35916)	kinase activity	–	10 µM	–	inhibition	22.8%
C[C@H](Cc1ccc(O)c(O)c1)[C@@H](C)Cc1ccc(O)c(O)c1	–	–	human skin	3% w/v solution, 8 h, no UV exposure	–	amount in epidermis	12.3 ± 1.87 µg
CCCCCCCCCCCCCCCC(=O)NCCCC[C@H](NC(=O)CNC(=O)[C@H](CO)NC(=O)CNC(=O)[C@@H](NC(=O)[C@@H](NC(=O)[C@@H](NC(=O)[C@H](CO)NC(=O)[C@H](CO)NC(=O)[C@H](CCC(N)=O)NC(=O)[C@H](Cc1c[nH]cn1)NC(=O)[C@H](Cc1c[nH]c2ccccc12)NC(=O)[C@H](CC(N)=O)NC(=O)CNC(=O)[C@@H](NC(=O)[C@H](CO)NC(=O)[C@H](CC(=O)O)NC(=O)[C@H](CC(C)C)NC(=O)[C@@H](NC(=O)[C@H](CCCCN)NC(=O)[C@H](CC(N)=O)NC(=O)[C@H](CO)NC(=O)[C@H](CCCNC(=N)N)NC(=O)[C@H](CCCNC(=N)N)NC(=O)[C@@H](NC(=O)[C@H](Cc1c[nH]c2ccccc12)NC(=O)[C@H](CCC(=O)O)NC(=O)[C@H](CCCCN)NC(=O)[C@H](CO)NC(=O)[C@H](CCC(=O)O)NC(=O)[C@H](CCC(=O)O)NC(=O)[C@H](CC(C)C)NC(=O)[C@H](CC(=O)O)NC(=O)[C@H](CO)NC(=O)[C@H](CCCCN)NC(=O)[C@@H](NC(=O)[C@H](CCCCN)NC(=O)[C@H](CC(N)=O)NC(=O)[C@H](CC(C)C)NC(=O)[C@@H](NC(=O)[C@@H](NC(=O)[C@H](CO)NC(=O)[C@@H](NC(=O)[C@H](CC(=O)O)NC(=O)[C@@H](NC(=O)[C@@H]1CCCN1C(=O)[C@H](CC(=O)O)NC(=O)[C@H](CC(C)C)NC(=O)[C@H](C)NC(=O)[C@@H](N)C(C)C)[C@@H](C)CC)[C@@H](C)CC)[C@@H](C)CC)C(C)C)[C@@H](C)CC)[C@@H](C)CC)[C@@H](C)CC)[C@@H](C)CC)[C@@H](C)O)[C@@H](C)O)[C@@H](C)CC)C(=O)O	–	–	water	–	–	solubility	3400 ± 80 µg/mL (≈ 583 µM)
satraplatin	–	toxicity	zebrafish larvae	1 to 1000 µM, 24 h, without KCN	–	LD100	not toxic
CCC(C)C(CC)C(N)=O (centres unmarked)	–	neurotoxicity	mouse	intraperitoneal	–	TD50	77 mg/kg
C=C(C)[C@@H]1[C@H]2OC(=O)[C@@H]1[C@]1(O)C[C@H]3O[C@]34C(=O)O[C@H]2[C@]14C	–	–	male NIH-NCI Swiss mice	intraperitoneal, 2 mg/kg	–	time to death	20 to 30 min

For quick reference, copied from above:
Substance	target or system	test	system	setting	scale	endpoint	value
CCC(C)C(CC)C(N)=O (centres unmarked)	–	neurotoxicity	mouse	intraperitoneal	–	TD50	77 mg/kg
